Results from different studies.
Every numbered part comes from another study and shows a few of its results, in no order. Values joined by “and” are separate records of one study, mostly repeats; a detail may differ.
UniProt P22607, sequence (whole entry, unmodified, looked up): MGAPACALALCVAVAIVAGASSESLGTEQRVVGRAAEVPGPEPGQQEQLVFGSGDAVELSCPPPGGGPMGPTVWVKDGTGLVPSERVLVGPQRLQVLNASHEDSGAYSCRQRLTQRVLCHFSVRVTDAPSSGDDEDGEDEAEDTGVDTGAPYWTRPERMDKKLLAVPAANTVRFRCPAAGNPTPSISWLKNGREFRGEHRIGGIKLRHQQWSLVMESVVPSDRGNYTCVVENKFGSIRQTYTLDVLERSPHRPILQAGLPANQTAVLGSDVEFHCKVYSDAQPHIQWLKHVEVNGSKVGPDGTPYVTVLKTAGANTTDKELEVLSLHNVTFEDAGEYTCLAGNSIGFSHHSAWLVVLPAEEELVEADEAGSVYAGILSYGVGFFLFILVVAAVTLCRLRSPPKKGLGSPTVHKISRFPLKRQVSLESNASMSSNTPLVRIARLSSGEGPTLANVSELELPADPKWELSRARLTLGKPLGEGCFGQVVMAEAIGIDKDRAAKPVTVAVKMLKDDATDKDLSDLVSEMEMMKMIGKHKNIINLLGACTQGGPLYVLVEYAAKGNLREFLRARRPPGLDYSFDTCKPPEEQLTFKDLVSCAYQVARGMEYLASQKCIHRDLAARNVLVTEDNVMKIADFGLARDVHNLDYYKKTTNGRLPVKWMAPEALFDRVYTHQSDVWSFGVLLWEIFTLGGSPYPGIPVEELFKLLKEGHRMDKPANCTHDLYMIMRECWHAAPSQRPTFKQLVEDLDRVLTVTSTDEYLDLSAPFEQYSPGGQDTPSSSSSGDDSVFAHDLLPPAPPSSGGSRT
UniProt O75914, sequence (whole entry, looked up): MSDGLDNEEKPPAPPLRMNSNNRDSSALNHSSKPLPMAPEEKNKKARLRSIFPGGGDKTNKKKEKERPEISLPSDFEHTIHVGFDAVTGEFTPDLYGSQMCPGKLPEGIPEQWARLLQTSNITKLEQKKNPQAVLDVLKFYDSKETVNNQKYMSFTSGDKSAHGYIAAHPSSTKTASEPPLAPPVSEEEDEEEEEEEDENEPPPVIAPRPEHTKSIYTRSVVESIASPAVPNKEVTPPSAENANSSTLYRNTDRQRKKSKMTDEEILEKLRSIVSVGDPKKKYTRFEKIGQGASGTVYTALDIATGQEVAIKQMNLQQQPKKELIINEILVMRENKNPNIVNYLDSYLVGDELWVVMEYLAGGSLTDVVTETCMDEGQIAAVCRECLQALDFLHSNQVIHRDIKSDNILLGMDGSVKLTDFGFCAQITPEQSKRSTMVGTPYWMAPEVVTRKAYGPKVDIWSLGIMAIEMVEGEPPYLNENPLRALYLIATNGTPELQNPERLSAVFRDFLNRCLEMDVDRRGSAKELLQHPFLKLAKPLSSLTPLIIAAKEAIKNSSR
UniProt P61075, sequence (whole entry, looked up): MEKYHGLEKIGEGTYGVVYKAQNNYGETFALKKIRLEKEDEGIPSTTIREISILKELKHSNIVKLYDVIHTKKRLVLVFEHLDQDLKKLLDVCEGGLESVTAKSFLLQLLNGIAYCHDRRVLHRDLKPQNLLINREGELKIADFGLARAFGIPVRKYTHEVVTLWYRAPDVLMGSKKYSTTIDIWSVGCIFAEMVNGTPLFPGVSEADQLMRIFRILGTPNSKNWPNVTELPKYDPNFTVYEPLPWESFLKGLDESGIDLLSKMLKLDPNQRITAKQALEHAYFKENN
UniProt P07949, sequence (whole entry, unmodified, looked up): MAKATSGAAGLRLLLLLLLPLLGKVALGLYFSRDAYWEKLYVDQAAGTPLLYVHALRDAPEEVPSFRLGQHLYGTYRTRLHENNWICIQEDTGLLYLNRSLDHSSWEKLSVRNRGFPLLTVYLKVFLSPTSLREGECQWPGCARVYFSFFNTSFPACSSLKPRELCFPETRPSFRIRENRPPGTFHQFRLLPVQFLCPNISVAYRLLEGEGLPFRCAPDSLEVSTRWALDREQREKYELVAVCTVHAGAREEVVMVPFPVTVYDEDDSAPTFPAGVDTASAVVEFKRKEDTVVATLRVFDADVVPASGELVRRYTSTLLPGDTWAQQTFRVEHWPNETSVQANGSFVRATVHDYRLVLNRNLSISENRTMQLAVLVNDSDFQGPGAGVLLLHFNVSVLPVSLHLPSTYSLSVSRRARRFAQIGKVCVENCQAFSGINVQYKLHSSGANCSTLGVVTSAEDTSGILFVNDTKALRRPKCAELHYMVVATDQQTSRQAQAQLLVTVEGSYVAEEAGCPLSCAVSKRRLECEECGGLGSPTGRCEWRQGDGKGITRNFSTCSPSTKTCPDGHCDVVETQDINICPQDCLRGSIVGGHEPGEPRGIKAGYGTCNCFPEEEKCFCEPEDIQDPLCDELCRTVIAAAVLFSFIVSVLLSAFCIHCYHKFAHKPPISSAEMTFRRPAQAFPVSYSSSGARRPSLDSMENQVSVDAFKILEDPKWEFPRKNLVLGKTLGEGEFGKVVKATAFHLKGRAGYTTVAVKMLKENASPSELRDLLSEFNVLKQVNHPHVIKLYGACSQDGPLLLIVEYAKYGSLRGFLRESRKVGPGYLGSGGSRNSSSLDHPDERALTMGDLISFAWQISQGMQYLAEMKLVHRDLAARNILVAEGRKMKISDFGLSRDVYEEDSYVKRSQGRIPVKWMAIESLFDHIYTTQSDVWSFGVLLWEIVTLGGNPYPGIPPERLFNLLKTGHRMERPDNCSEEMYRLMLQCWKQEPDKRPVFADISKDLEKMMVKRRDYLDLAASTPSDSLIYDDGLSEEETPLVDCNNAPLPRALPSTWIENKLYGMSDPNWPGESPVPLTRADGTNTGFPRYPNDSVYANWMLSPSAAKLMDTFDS
UniProt Q9H0K1, sequence (whole entry, looked up): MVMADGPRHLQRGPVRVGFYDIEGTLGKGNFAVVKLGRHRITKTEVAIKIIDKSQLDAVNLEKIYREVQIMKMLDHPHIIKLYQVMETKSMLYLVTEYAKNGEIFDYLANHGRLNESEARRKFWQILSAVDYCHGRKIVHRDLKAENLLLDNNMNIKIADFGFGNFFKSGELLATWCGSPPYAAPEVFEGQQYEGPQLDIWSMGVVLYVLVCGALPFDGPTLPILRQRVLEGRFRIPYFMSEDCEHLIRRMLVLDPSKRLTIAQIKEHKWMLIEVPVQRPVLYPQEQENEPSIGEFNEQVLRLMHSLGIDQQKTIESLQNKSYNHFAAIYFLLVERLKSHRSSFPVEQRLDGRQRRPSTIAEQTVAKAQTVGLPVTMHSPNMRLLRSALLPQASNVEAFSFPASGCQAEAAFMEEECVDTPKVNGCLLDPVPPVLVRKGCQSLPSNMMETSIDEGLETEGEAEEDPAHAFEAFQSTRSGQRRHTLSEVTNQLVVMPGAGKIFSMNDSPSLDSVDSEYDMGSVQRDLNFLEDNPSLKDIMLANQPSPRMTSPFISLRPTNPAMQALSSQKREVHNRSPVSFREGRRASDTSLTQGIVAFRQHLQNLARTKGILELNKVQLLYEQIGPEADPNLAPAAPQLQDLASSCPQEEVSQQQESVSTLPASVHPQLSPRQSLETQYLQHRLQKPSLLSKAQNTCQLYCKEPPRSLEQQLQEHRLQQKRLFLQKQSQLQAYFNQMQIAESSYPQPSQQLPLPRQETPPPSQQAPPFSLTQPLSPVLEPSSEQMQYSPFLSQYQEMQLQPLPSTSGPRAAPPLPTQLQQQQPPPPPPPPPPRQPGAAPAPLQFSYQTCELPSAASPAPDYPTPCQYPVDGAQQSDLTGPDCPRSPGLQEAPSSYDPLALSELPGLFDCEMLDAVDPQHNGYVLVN
UniProt Q9BYT3, sequence (whole entry, looked up): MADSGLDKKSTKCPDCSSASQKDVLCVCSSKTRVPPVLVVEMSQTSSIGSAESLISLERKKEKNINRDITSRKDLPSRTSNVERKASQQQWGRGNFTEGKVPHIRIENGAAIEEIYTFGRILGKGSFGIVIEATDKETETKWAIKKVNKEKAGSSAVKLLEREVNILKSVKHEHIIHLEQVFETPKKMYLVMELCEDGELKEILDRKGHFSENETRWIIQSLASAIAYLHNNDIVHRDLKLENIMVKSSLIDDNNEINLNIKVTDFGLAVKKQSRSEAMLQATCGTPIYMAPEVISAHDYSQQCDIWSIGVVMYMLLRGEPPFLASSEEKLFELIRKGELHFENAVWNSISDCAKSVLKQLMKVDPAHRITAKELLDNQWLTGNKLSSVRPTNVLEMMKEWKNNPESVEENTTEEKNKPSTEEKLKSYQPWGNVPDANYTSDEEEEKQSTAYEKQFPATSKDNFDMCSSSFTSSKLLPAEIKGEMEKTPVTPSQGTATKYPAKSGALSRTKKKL

Set 1 — endpoint: inhibition
SMILES: CCCCCCCCCCCCCCCCOP(=O)([O-])OCC[N+](C)(C)C
THP-1; host cell growth; 10 µM: 24% and 20% and 35% and 33%
Leishmania donovani; parasite growth, imaging; THP-1; 4 nM, intracellular, amastigote: 6% and -4% and 2% and 1%
THP-1; host cell growth; 0.4 µM: -2.62% and -0.63% and -0.4% and -0.52% and 2.34% and -0.18%
Leishmania donovani; parasite growth, imaging; THP-1; 20 nM, intracellular, amastigote: 3% and 2% and 4% and 6%

Set 2 — effect on: binding; concentration: 1 µM; endpoint: remaining binding
Structure (SMILES): Cc1ccc(NC(=O)c2ccnc(C(F)(F)F)c2)cc1-c1cc(OCCO)nc(N2CCOCC2)c1
Serine/threonine-protein kinase SIK2 (SIK2, Homo sapiens, UniProt Q9H0K1); competition with immobilised ligand: 97%
Serine/threonine-protein kinase 33 (STK33, Homo sapiens, UniProt Q9BYT3); competition with immobilised ligand: 97%
Fibroblast growth factor receptor 3 (FGFR3, Homo sapiens, UniProt P22607, G697C): 72%
Cyclin-dependent kinase 2 homolog (CRK2, Plasmodium falciparum, UniProt P61075): 93%
Serine/threonine-protein kinase PAK 3 (PAK3, Homo sapiens, UniProt O75914): 26%
Proto-oncogene tyrosine-protein kinase receptor Ret (RET, Homo sapiens, UniProt P07949, M918T): 81%

Set 3 — concentration: 1 µM; relative to: DMSO; endpoint: viability
SMILES: CCCCNc1ncc(-c2ccc(CN3CCOCC3)cn2)c(NC2CCC(O)CC2)n1 (centres unmarked)
sample C colorectal tumour organoid; replicate 1: 87.6%
colorectal tumour organoids: 106%
sample B colorectal tumour organoid; replicate 1: 118%
sample B colorectal tumour organoid; replicate 2: 95.2%
sample C colorectal tumour organoid; replicate 2: 113%
sample BA colorectal tumour organoid: 114%

Set 4 — organism: Sarcocystis neurona; effect on: parasite growth; concentration: 10 µM; setting: secondary screen; endpoint: inhibition
c1ccc(-c2ccc(C(c3ccccc3)n3ccnc3)cc2)cc1 (centres unmarked): 35.3%
CC(=O)OCC(=O)[C@@]12OC(C)(C)O[C@@H]1C[C@H]1[C@@H]3C[C@H](F)C4=CC(=O)C=C[C@]4(C)[C@@]3(F)[C@@H](O)C[C@@]12C: -56.6%
O=C1Nc2ccc(Cl)cc2[C@@](C#CC2CC2)(C(F)(F)F)O1: 18.2%
CC(=O)SCC(Cc1ccccc1)C(=O)NCC(=O)OCc1ccccc1 (centres unmarked): -59.5%
O=c1[nH]c(=O)n(C2CCCO2)cc1F (centres unmarked): -5.5%
Cc1nccn1CC1CCc2c(c3ccccc3n2C)C1=O.Cl (centres unmarked): -33.4%

Set 5 — effect on: enzyme activity; mode: inhibitor; concentration: 0.5 µM; relative to: control; endpoint: remaining activity
Target: Serine/threonine-protein kinase 38 (STK38, Homo sapiens, UniProt Q15208)
UniProt Q15208, sequence (whole entry, looked up): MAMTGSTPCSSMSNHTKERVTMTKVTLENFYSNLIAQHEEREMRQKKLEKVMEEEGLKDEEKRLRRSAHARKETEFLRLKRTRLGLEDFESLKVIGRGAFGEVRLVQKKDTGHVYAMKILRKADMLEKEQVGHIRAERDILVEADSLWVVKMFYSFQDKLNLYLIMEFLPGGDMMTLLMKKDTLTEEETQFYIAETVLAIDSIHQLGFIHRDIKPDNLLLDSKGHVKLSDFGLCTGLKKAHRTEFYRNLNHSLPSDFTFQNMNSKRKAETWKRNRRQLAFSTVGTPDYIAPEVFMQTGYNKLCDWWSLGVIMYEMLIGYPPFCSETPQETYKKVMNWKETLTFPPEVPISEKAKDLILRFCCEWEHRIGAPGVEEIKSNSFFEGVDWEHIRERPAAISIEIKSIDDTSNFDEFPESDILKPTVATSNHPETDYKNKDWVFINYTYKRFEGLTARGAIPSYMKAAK
N#CC(C#N)=C(N)/C(C#N)=C/c1ccc(O)cc1: 96.9%
Cc1nc(-c2ccccc2)c(-c2ccncc2)o1: 97.3%
NCCNc1ncc(C(N)=O)c(Nc2cccc(C(F)(F)F)c2)n1: 78.7%
O=C(CCCc1ccc(-c2ccccc2F)cc1)Nc1ccc(O)cc1: 109%
Nc1ncnc2n[nH]c(Nc3ccc(F)cc3)c12: 101%
CO[C@H]1C[C@@H]2CC[C@@H](C)[C@@](O)(O2)C(=O)C(=O)N2CCCC[C@H]2C(=O)O[C@H]([C@H](C)C[C@@H]2CC[C@@H](O)[C@H](OC)C2)CC(=O)[C@H](C)/C=C(\C)[C@@H](O)[C@@H](OC)C(=O)[C@H](C)C[C@H](C)/C=C/C=C/C=C/1C: 92.8%
COc1cc2ncnc(Nc3ccc(Oc4ccccc4)cc3)c2cc1OC: 105%
O=C(O)c1ccc2c3c1cccc3c(=O)n1c3ccccc3nc21: 97.5%
CNC(=O)c1cc(Oc2ccc(NC(=O)Nc3ccc(Cl)c(C(F)(F)F)c3)cc2)ccn1: 99.8%
C#Cc1cccc(Nc2ncnc3cc(OCCOC)c(OCCOC)cc23)c1: 101%
COc1cc2nccc(Oc3ccc(NC(=S)NC(=O)c4ccccc4C)cc3)c2cc1OC: 107%
Cc1cccc(-c2[nH]c(C(C)(C)C)nc2-c2ccc3c(c2)OCO3)n1: 91.7%
Cc1ccc(Nc2nccc(N(C)c3ccc4c(C)n(C)nc4c3)n2)cc1S(N)(=O)=O: 100%
O=C1NC(=O)C(c2cn(CCCn3ccnc3)c3ccccc23)=C1Nc1ccccc1: 99.1%
Nc1ccc2ncnc(NCCc3ccc(Oc4ccccc4)cc3)c2c1: 97.9%
CCOC(=O)c1c(C)[nH]c(/C=C2\C(=O)Nc3ccccc32)c1C: 101%
Cc1ccc(NC(=O)c2ccc(CN3CCN(C)CC3)cc2)cc1Nc1nc(-c2cccnc2)cs1: 95.9%
COc1cc2ncnc(Nc3ccc(F)c(Cl)c3)c2cc1OCCCN1CCOCC1: 105%
Oc1ccc(-c2nc(-c3ccncc3)c(-c3ccc(F)cc3)[nH]2)cc1: 99.8%
